Measurements gathered from unrelated publications.
Matrix: Caco-2

`COc1ccc(CC[C@@H](OC(=O)[C@@H]2CCCCN2C(=O)[C@H](c2cc(OC)c(OC)c(OC)c2)C2CCCCC2)c2cccc(OCC(=O)O)c2)cc1OC` has an efflux ratio of > 10.
`CCC/C(=C\C1=C(OC)C(=O)c2ccccc2C1=O)C(=O)NOC` gave an efflux ratio of 0.88.
For `CC(C)c1cnn2c(NCc3ccccc3)cc(N[C@@H](CO)[C@H](O)CO)nc12`, the efflux ratio was 12 (10 µM).
`CCCCC(CC)CNC(=N)NC(=N)NCCC` (centres unmarked) gave an efflux ratio of > 236 (5 µM, 2 h).
`CCN(CC)CCN=S(=O)(c1ccccc1)N1CCCCC1` (centres unmarked) has an efflux ratio of 1.5.
The efflux ratio of `O=S(=O)(c1ccccc1)N1CCCCC1` is reported as 0.64.
`COC(=O)N[C@H]1CC[C@@H](Nc2cc(NCc3ccccc3F)n3ncc(C(C)C)c3n2)CC1` has an efflux ratio of ~1 (10 µM).
The efflux ratio of `CCCCC(CC)CNC(=N)NC(=N)NCCCCCCCCNC(=N)NC(=N)NCC(CC)CCCC` (centres unmarked) is reported as > 6.88 (5 µM, 2 h).
`NC(=O)c1c(F)ccc(OCc2nc3cc(Cl)cnc3s2)c1F` has an efflux ratio of 0.645.
The efflux ratio of `Nc1ccc(-c2ccc3ncc4c(=O)[nH]c(=O)n(-c5cccc(C(F)(F)F)c5)c4c3n2)cn1` is reported as 22.7.
With `COC(=O)c1ccc2c(c1)NC(=O)/C2=C(\Nc1ccc2c(c1)CCN2C(=O)CN1CCOCC1)c1ccccc1` the efflux ratio was ~2.6 (2 µM, 2 h).

Excerpt of the above:
`NC(=O)c1c(F)ccc(OCc2nc3cc(Cl)cnc3s2)c1F` has an efflux ratio of 0.645.
